Measurements collected from several papers.
Each line is one published result; not all experiments were run side by side. “And” joins repeats or separate records; there may be more than shown. Numbers after ± are the reported error.

NCc1cc2c(cc1F)C(=O)N(C1CCC(=O)NC1=O)C2 (centres unmarked)  degradation (degrader, Western blot, measured: GSPT1; cynomolgus monkey, PBMC; oral, 0.1 mg/kg, 6 h): ~80%
NC(=O)c1cnc2[nH]ccc2c1N[C@@H]1[C@@H]2CC3C[C@H]1C[C@@](O)(C3)C2  change from baseline (flow cytometry, measured: CD4+ memory T cells; Japanese healthy subjects, peripheral blood; oral, 100 mg twice daily, day 4): -1.03%
O[C@H]1CCCN[C@@H]1CCCn1cnc2c(Cl)c(Cl)ccc21  maximum reduction (ELISA, measured: Pro-C3; healthy human volunteers, serum; 200 mg, day 1, multiple ascending dose): 27.2%
O=C(O)CNC(=O)Cc1ccccc1  sarcomere length (ventricular cardiomyocytes, C57BL/6 mouse; dose not given, 0.552 s): 1.62 µm
C=CCn1c(=O)c2cnc(Nc3ccc(N4CCN(C)CC4)cc3)nc2n1-c1ccc2c(n1)[C@@](O)(CC)CC2  target lesion reduction (human, target lesions; oral, 350 mg once daily, cycle 3): 49%
COc1cc(CNC(=O)CCCC/C=C/C(C)C)ccc1O  flare area (laser speckle imaging; rhesus macaques, volar forearm skin; intradermal, 100 µg): 117 mm²
CCN1CCN(Cc2ccc(Nc3ncc(F)c(-c4cc(F)c5nc6n(c5c4)[C@H](C)CCC6)n3)nc2)CC1  complete response (human advanced solid tumours; 500 mg, phase Ia monotherapy RECIST 1.1): 0%
O=C(O)CCc1nccc2c3ccccc3n(Cc3ccc(Br)c4ccccc34)c12  serum uric acid (mouse, acute hyperuricaemia model, serum; oral, 2 mg/kg, individual animal data): 597 µM and 295 µM and 178 µM and 378 µM and 278 µM
COc1ccccc1[C@H](Cn1c(=O)n(C(C)(C)C(=O)O)c(=O)c2c(C)c(-c3ncco3)sc21)OC1CCOCC1  fractional hepatic DNL ([1-13C]acetate infusion, isotopomer analysis; overweight or obese healthy men, plasma VLDL-TG palmitate; oral, 200 mg single dose, 9 h post-dose, together with: oral fructose): 6.79 % new palmitate
CC(C)[C@H](C(=O)Nc1ccc(C(=O)NO)cc1)c1ccccc1  tumour growth rate (volumetric MRI; human, right C1 intradural meningioma; dose not given, day 64): 138 %/year
[Cl-].[Cl-].[Pt+2].[Ru+2].c1ccc(-c2nc3ccccc3nc2-c2ccccn2)nc1.c1cnc2c(c1)ccc1cccnc12.c1cnc2c(c1)ccc1cccnc12  activation enthalpy (concentration not given, second substitution step, together with: guanosine 5'-monophosphate): 12.7 ± 1.2 kcal/mol
OC(CCN1CCCCC1)(c1ccccc1)C1CC2C=CC1C2 (centres unmarked)  EEG Beta2-power Pz-O2 (resting-state EEG; healthy elderly humans; oral, 4 mg, eyes closed, LS mean): 1.1 µV²
CN[C@@H]1COc2c(S(=O)(=O)NC(=O)Nc3c4c(cc5c3CCC5)CCC4)cnn2C1  inhibition (measured: IL-1β; human participants, whole blood ex vivo; 300 mg twice daily, multiple doses, 1 h, together with: LPS/ATP; baseline: baseline): 99.4%
Cc1ccc([C@@H]2O[C@H](CO)[C@@H](O)[C@H](O)[C@H]2O)cc1Cc1ccc(-c2ccc(F)cc2)s1  change in fasting serum insulin (Japanese type 2 diabetes patients; 200 mg, day 17; baseline: day 1): -0.9 µU/mL
CC(C)NCC(O)c1ccc(O)c(O)c1 (centres unmarked)  sarcomere length (ventricular cardiomyocytes, C57BL/6 mouse; dose not given, 0.736 s): 1.72 µm
N#Cc1ccn2c(-c3ccncc3)c(-c3ccc(F)cc3)nc2c1  log2 fold change (kinase binding, competitor, MIB/MS competition, measured: YPK1; Candida albicans cell lysate; 10 µM; baseline: DMSO): -0.0357
NCC(=O)Nc1cncc(-c2nn3c(=O)cc(N4CCNCC4)nc3s2)c1  inhibition (ADP-induced platelet aggregation, light transmission aggregometry; human, stable CAD on aspirin, ex vivo platelets; subcutaneous, 0.05 mg/kg, 360 min post-dose, median value, together with: ADP 20 µM): 3.95%
COc1nc(-c2cc(C)c(N[C@@H](C)c3cc(F)cc(F)c3)nn2)ccc1-n1cnc(C)c1  change in level (measured: Aβ40; rat Sprague-Dawley male, CSF; oral, 5 mg/kg daily for 9 days, 4 h after dose; baseline: vehicle): 29%
CC(C)C[C@H](NC(=O)[C@@H](Cc1c[nH]c2ccccc12)NC(=O)[C@H](Cc1ccc(O)cc1)NC(=O)[C@H](CO)NC(=O)[C@H](Cc1c[nH]c2ccccc12)NC(=O)[C@H](Cc1c[nH]cn1)NC(=O)[C@@H]1CCC(=O)N1)C(=O)N[C@@H](CCCNC(=N)N)C(=O)N1CCC[C@H]1C(=O)NCC(N)=O  basal LH level (Chinese children, central precocious puberty, serum; intramuscular, 22.5 mg day 1, month 6, month 3): 0.36 IU/L
[Cl-].[Cl-].[Pt+2].[Ru+2].c1ccc(-c2nccnc2-c2ccccn2)nc1.c1cnc2c(c1)ccc1cccnc12.c1cnc2c(c1)ccc1cccnc12  activation enthalpy (concentration not given, second substitution step, together with: thiourea): 9.32 ± 0.717 kcal/mol
COc1nnc2ccc(N3CCC(c4ccc(OCCN5CCN(C)C(=O)[C@H]5C)cc4)CC3)nn12  plasma MCP-1 level (cancer patients, plasma; dose not given, 0 to 3 h, monotherapy cohorts): decreased
Cc1nn(-c2nc3c(F)cc(F)cc3s2)c(O)c1C(c1ccc(C(F)(F)F)cc1)c1c(C)nn(-c2nc3c(F)cc(F)cc3s2)c1O  serum amylase activity (mouse, cerulein-induced acute pancreatitis, serum; 25 mg/kg): 52.7 mOD/min and 84.9 mOD/min and 88.9 mOD/min and 44.8 mOD/min and 136 mOD/min and 87.1 mOD/min and 142 mOD/min and 98.8 mOD/min
C[C@@H](NC(=O)N1C(=O)[C@H](Cc2ccnc(N)c2)[C@H]1C(=O)O)C1CCCCC1  aPTT AUEC (human; iv infusion, 1.5 mg/kg/h, 24 h, unit not given; baseline: baseline): 234
O=c1cc(-c2ccc(O)c(O)c2)oc2cc(O)cc(O)c12  protein level (Western blot, measured: occludin, claudin-1, ZO-1; duck, intestine; dose not given): decreased
O=C(NS(=O)(=O)c1ccc(C(F)(F)F)cc1)c1cc2ccccc2n1Cc1ccc(Br)c2ccccc12  serum uric acid (mouse, acute hyperuricemia model; dose not given): 351 µM and 374 µM and 255 µM and 243 µM and 232 µM and 259 µM
CN[C@@H](C)C(=O)N[C@H]1CN(S(=O)(=O)c2cccc(S(=O)(=O)N3CC[C@H]4CC[C@@H](C(=O)NC(c5ccccc5)c5ccccc5)N4C(=O)[C@@H](NC(=O)[C@H](C)NC)C3)c2)CC[C@H]2CC[C@@H](C(=O)NC(c3ccccc3)c3ccccc3)N2C1=O  objective response rate (RECIST 1.1; advanced pancreatic cancer patients; dose not given, no prior therapy, together with: AG): 33.3%
NC(=O)C1CCCc2c1[nH]c1ccc(Cl)cc21 (racemic)  viability (OCI-Ly1; 0.1 µM, 120 h): 192%
COc1ccc(S(=O)(=O)NC(=O)c2cc3ccccc3n2Cc2ccc(C3CC3)c3ccccc23)cc1  serum uric acid (male mouse, acute hyperuricaemia model, serum; oral, 2 mg/kg, 4 h): 251 ± 77.4 µM
N[C@@H](CC(=O)N1CCn2c(nnc2C(F)(F)F)C1)Cc1cc(F)c(F)cc1F  Ki-67+ AEC2 cells (flow cytometry; model, mouse, lung injury, LPS-induced; oral, 100 mg/kg twice daily, 1 d post injury): 70%
Cc1ccc(S(=O)(=O)NC(=O)c2cc3ccccc3n2Cc2ccc(C3CC3)c3ccccc23)cc1  serum uric acid (male mouse, acute hyperuricaemia model, serum; oral, 2 mg/kg, 4 h): 335 ± 189 µM
Cc1c(C)c2c(c(C)c1O)CC[C@@](C)(CCC[C@H](C)CCC[C@H](C)CCCC(C)C)O2  absorbance (Cu2+ reduction, CUPRAC; 30 µg/mL): 0.552 ± 0.085
N#CCNC(=O)c1ccc(-c2ccnc(Nc3ccc(N4CCOCC4)cc3)n2)cc1  rate of TSS reduction ≥50% (patients with myelofibrosis; dose not given, 24 weeks, phase III trials): 28.6%
CC(C)n1c(C2CCNCC2)nc2c([N+](=O)[O-])c(Br)c(Br)cc21  minimum blast change (patients with AML, bone marrow; all dose levels; baseline: baseline): -100%
N#Cc1ccc2c(-c3ccncc3)c(-c3ccc(F)cc3)nn2c1  log2 fold change (kinase binding, competitor, MIB/MS competition, measured: MCK1; Candida albicans cell lysate; 100 nM; baseline: DMSO): -0.54
Cn1cc(Nc2nc(N)nc(-c3cccc(-n4ccc5cc(C6CC6)cc(F)c5c4=O)c3CO)n2)cn1  inhibition (CD63 upregulation, anti-IgE-induced; human, multiple ascending dose, whole blood basophils ex vivo; 50 mg twice daily, day 14, 12 h): 70.4%
COc1c(Cl)cccc1Nc1c(-c2ccncc2OC[C@@H]2COCCO2)[nH]c2c1C(=O)NCC2  tumour shrinkage (human; oral, 20 mg twice daily, 54 weeks): 78%
C=CCn1c(=O)c2cnc(Nc3ccc(N4CCN(C)CC4)cc3)nc2n1-c1cccc(C(C)(C)O)n1  tumour size change (RECIST; HNSCC patients; dose not given, single agent first week, then cisplatin/docetaxel): -16%
Cn1cc([C@H]2C[C@H]3CSC(N)=N[C@@]3(c3ccc(F)cc3F)CO2)cn1  Aβ40 level (measured: Aβx-40; Mus musculus wild-type, cerebrospinal fluid; subcutaneous, 10 mg/kg, 1 h): 1.5 ng/mL
COc1ccc([C@@H](O)c2cc(-c3ncnc4cc(N5CCOCC5)ccc34)c(F)cc2Cl)nn1  objective response rate (RECIST version 1.1; patients, advanced solid tumours; 200 mg twice daily, together with: avelumab; baseline: patients): 0%
N#Cc1ccc2c(c1)[C@H]1CCCN(C(=O)c3ccc4[nH]cnc4c3)[C@H]1C2  total urinary corticosteroids (human, urine; 10 mg, 336 h, day 14 over day -1; baseline: placebo and baseline): 108 % change
Cc1c(Cl)c(C)[n+]([O-])c(Cl)c1-c1noc(-c2cc(O)c(O)c([N+](=O)[O-])c2)n1  Vmax (glucuronidation, substrate; human liver microsomes): 25 ± 1.5 pmol/min/mg protein
c1ccc(-c2cc(-c3ccccc3)n(Cn3ccnc3)n2)cc1  wound size (rat, STZ-nicotinamide diabetic; 75 mg/kg, 168 h, full-thickness excision wound): 17.4 mm
CSCCNc1nc(SCCC(F)(F)F)nc2c1ncn2[C@@H]1O[C@H](COP(=O)(O)OP(=O)(O)C(Cl)(Cl)P(=O)(O)O)[C@@H](O)[C@H]1O  high residual platelet reactivity (ADP-induced platelet aggregation, Multiplate aggregometry; human patients, whole blood; dose not given, 30 min, AUC above 46; baseline: patients): 14.3%
CCCS(=O)(=O)NC(=O)c1cc2ccccc2n1Cc1ccc(Br)c2ccccc12  serum uric acid (mouse, acute hyperuricemia model; dose not given): 1190 µM and 1150 µM and 952 µM
CN(C(=O)n1cnc(-c2ccc[n+]([O-])c2)c1)C1CCCCC1  licking time score (mice, formalin paw test; 1 mg/kg, late phase, together with: anandamide 5 mg/kg i.p.; direction not given): 4.2
O=P(O)(O)C(Cl)(Cl)P(=O)(O)O  Iba1-positive area (Mus musculus, sham-operated, meninges; concentration not given, day 7; baseline: total area): 0.62% and 0.56% and 0.45%
N#Cc1ccc2c(c1)[C@H]1CCCN(C(=O)c3ccc4[nH]cnc4c3)[C@H]1C2  change from baseline (measured: HDL; human; 20 mg once daily, day 28, adjusted mean): -0.82 mg/dL
C[C@H]1C[C@H]2CSC(N)=N[C@@]2(c2nc(NC(=O)c3ccc(OC(F)F)cn3)cs2)CO1  percent change from baseline (measured: Aβx-40; healthy adults, plasma; 125 mg once daily, day 14; baseline: placebo): -71.7%
C[C@H](Oc1ccc(Br)cc1-c1ccon1)C(=O)O  difference from placebo (first response peak; human, tibialis anterior muscle; 800 mg, 30 Hz, single ascending dose): -3.8%
C[C@H]1O[C@@H](O[C@H]2CC[C@@]3(C)[C@@H](CC[C@]4(C)[C@@H]3C=C[C@]35OC[C@@]6(CCC(C)(C)C[C@H]63)[C@@H](O)C[C@]54C)[C@]2(C)CO)[C@H](O)[C@@H](O[C@@H]2O[C@H](CO)[C@@H](O)[C@H](O)[C@H]2O)[C@H]1O  γ-GT activity (chronic-plus-binge ethanol mice, plasma; oral, 15 mg/kg/day for 7 d, 168 h): 19.8 U/L and 22.1 U/L and 24.4 U/L and 24.8 U/L and 20.4 U/L and 23.1 U/L and 30.5 U/L and 20.6 U/L

A few entries again:
N[C@@H](CC(=O)N1CCn2c(nnc2C(F)(F)F)C1)Cc1cc(F)c(F)cc1F  Ki-67+ AEC2 cells (flow cytometry; model, mouse, lung injury, LPS-induced; oral, 100 mg/kg twice daily, 1 d post injury): 70%
Cc1ccc(S(=O)(=O)NC(=O)c2cc3ccccc3n2Cc2ccc(C3CC3)c3ccccc23)cc1  serum uric acid (male mouse, acute hyperuricaemia model, serum; oral, 2 mg/kg, 4 h): 335 ± 189 µM
Cc1c(C)c2c(c(C)c1O)CC[C@@](C)(CCC[C@H](C)CCC[C@H](C)CCCC(C)C)O2  absorbance (Cu2+ reduction, CUPRAC; 30 µg/mL): 0.552 ± 0.085
